Measured values of several laboratories.
Parts stem from different laboratories: compare values within a part only. Several values in a cell are separate wells, animals, samples, runs or records.
Sequence of UniProt Q9H2K8 (whole entry, looked up): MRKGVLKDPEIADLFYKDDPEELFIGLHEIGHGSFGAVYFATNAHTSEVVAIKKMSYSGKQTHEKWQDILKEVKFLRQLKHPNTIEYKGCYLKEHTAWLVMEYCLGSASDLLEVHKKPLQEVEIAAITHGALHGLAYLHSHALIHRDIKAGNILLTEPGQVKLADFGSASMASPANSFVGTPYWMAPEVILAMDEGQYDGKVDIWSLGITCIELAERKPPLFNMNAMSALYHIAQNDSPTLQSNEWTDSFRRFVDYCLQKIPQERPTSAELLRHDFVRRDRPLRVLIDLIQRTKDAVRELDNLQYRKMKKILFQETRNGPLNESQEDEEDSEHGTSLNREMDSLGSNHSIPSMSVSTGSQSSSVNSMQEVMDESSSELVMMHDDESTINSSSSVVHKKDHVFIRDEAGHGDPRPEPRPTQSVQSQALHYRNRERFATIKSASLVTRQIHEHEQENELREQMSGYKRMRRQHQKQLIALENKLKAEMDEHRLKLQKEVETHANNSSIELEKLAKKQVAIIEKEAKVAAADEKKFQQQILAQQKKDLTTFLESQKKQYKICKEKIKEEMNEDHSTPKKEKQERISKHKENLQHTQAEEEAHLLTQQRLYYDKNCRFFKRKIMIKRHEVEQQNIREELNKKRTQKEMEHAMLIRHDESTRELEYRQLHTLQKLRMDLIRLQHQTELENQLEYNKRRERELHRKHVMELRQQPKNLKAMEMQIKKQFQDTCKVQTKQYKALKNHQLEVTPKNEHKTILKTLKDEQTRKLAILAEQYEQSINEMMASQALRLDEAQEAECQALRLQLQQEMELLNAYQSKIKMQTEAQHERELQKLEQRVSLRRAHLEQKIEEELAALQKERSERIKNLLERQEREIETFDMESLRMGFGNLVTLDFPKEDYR
Sequence of UniProt O75116 (whole entry, looked up): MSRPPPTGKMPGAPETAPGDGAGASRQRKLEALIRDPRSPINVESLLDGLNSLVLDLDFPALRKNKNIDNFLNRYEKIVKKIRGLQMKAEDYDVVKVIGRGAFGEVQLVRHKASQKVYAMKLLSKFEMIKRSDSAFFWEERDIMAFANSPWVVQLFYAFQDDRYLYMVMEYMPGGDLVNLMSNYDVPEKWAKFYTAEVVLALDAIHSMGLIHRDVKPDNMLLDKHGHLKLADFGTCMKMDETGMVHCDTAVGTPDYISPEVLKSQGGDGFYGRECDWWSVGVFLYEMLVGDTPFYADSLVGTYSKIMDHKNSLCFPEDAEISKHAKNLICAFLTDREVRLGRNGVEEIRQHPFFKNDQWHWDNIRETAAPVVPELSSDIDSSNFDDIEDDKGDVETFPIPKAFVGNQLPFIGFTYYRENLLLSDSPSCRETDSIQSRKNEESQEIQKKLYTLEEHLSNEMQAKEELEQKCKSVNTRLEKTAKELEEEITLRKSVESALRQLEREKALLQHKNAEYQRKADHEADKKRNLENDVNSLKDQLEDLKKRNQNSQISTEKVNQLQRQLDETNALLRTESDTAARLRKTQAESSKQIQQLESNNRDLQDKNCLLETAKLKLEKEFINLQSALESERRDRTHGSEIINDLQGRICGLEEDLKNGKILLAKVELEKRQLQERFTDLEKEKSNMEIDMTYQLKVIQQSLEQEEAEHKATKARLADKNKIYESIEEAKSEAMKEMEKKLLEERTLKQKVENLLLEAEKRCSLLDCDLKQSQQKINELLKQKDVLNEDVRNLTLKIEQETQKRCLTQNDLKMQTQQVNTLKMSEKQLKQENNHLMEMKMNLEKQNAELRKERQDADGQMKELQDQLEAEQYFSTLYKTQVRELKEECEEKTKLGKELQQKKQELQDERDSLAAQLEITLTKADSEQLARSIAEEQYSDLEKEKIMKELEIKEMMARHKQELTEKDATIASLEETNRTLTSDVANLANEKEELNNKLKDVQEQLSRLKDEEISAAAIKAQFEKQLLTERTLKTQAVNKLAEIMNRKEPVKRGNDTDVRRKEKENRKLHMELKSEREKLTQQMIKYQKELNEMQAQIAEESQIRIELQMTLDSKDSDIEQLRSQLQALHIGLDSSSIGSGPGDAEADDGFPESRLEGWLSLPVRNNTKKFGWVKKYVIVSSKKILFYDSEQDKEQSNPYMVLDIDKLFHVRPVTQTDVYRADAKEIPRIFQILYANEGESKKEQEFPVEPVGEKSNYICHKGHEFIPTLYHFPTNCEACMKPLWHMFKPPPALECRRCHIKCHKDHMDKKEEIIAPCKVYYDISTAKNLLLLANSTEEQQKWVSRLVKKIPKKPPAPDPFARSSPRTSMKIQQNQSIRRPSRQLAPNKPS
Sequence of UniProt Q5S007 (whole entry, looked up): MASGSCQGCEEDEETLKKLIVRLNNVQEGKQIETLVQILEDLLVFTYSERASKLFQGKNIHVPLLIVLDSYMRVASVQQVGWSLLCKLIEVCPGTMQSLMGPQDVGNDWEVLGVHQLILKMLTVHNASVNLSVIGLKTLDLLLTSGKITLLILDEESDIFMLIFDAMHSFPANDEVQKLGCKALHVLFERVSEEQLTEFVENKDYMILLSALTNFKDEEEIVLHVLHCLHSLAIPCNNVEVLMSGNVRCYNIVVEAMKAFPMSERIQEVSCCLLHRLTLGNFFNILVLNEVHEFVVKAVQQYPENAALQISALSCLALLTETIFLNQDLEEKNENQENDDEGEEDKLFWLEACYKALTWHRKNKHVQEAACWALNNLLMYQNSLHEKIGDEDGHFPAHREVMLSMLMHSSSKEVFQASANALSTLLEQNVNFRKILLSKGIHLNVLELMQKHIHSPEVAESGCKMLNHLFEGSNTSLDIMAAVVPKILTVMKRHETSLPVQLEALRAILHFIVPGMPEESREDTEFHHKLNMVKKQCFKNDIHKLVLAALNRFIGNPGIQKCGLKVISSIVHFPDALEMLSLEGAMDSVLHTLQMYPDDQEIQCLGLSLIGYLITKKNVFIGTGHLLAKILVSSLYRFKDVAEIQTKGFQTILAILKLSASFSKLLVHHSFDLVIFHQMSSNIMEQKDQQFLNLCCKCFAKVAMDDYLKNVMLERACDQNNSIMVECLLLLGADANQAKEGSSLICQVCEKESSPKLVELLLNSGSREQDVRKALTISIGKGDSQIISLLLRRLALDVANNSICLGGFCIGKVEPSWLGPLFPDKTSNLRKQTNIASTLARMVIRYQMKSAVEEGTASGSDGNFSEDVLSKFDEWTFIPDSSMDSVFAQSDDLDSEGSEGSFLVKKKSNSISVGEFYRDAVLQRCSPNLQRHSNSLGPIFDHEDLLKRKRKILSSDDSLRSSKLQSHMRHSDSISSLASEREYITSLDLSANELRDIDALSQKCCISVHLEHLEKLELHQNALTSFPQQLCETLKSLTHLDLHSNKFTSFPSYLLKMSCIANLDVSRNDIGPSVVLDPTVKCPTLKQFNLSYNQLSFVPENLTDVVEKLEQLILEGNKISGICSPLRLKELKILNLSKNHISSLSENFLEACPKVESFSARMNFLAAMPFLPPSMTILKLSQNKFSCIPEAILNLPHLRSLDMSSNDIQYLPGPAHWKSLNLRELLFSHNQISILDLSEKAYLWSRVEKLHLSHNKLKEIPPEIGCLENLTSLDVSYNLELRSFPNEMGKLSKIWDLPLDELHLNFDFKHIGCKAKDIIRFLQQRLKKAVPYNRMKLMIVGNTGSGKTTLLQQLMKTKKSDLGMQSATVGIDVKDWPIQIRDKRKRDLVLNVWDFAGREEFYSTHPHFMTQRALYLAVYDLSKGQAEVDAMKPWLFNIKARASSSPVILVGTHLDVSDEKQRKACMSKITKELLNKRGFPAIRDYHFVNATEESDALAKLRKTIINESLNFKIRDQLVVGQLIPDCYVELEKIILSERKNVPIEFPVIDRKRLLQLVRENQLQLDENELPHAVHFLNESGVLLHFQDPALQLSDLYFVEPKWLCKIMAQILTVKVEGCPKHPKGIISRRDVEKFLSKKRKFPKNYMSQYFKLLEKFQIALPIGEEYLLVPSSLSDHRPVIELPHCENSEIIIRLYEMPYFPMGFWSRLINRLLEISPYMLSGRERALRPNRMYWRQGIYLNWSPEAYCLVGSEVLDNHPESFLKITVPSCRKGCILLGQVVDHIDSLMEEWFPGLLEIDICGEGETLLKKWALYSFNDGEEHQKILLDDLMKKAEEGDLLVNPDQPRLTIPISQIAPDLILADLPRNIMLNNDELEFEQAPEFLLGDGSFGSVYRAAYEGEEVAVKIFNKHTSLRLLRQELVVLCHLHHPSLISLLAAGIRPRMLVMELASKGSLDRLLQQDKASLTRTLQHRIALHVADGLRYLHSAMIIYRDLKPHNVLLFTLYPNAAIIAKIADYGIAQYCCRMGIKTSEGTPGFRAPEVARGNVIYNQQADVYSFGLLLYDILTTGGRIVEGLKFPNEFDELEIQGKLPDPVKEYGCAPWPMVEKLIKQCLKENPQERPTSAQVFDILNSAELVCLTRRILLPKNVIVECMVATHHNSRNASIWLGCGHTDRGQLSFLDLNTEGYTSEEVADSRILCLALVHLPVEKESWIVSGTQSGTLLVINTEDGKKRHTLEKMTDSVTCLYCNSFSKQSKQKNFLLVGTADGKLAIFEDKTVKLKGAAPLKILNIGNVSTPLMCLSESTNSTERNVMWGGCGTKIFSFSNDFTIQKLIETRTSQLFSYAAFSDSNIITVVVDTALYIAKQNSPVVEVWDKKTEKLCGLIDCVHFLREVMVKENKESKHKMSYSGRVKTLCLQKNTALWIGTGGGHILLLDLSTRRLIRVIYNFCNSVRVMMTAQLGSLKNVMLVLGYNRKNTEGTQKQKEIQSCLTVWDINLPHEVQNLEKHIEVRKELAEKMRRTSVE
Sequence of UniProt Q6P2M8 (whole entry, looked up): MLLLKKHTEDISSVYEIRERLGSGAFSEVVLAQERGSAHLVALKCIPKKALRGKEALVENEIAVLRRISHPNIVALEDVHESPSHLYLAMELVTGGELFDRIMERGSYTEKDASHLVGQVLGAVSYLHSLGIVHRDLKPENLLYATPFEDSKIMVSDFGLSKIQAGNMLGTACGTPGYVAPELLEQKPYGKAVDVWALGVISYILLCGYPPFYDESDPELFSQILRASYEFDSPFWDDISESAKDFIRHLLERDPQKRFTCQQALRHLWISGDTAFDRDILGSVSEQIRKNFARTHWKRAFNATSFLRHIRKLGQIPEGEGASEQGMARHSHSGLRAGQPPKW

Sample 1 — concentration: 10 µM
SMILES: Cc1sc(C(=O)NC2COC2)cc1-n1cc(NC(=O)Nc2c(F)cccc2Cl)cn1
| target | assay | how to read | remaining activity [%] |
| --- | --- | --- | --- |
| Serine/threonine-protein kinase TAO3 (TAOK3, Homo sapiens, UniProt Q9H2K8) | enzyme activity | reference: untreated control | 94.4 |
| Rhodopsin kinase GRK1 (GRK1, Homo sapiens, UniProt Q15835) | enzyme activity | reference: untreated control | 109 |
| Serine/threonine-protein kinase 38 (STK38, Homo sapiens, UniProt Q15208) | enzyme activity | reference: untreated control | 88.3 |
| Discoidin domain-containing receptor 2 (DDR2, Homo sapiens, UniProt Q16832) | enzyme activity | reference: untreated control | 104 |
| Serine/threonine-protein kinase SIK1 (SIK1, Homo sapiens, UniProt P57059) | enzyme activity, inhibitor | – | 99.8 |
| Casein kinase I isoform epsilon (CSNK1E, Homo sapiens, UniProt P49674) | enzyme activity | reference: untreated control | 97.5 |
| Mitogen-activated protein kinase 9 (MAPK9, Homo sapiens, UniProt P45984) | enzyme activity | reference: untreated control | 50.1 |
| cAMP-dependent protein kinase catalytic subunit gamma (PRKACG, Homo sapiens, UniProt P22612) | enzyme activity | reference: untreated control | 97.4 |
| Serine/threonine-protein kinase/endoribonuclease IRE1 (ERN1, Homo sapiens, UniProt O75460) | enzyme activity | reference: untreated control | 93.3 |
| Ribosomal protein S6 kinase beta-2 (RPS6KB2, Homo sapiens, UniProt Q9UBS0) | enzyme activity, inhibitor | – | 98.9 |
| Serine/threonine-protein kinase 26 (STK26, Homo sapiens, UniProt Q9P289) | enzyme activity | reference: untreated control | 71.3 |
| Cyclin-dependent kinase 16, with cyclin Y (CDK16, Homo sapiens, UniProt Q00536) | kinase activity, kinase panel profiling | – | 102 |
| Rho-associated protein kinase 2 (ROCK2, Homo sapiens, UniProt O75116) | enzyme activity | reference: untreated control | 91.7 |
| Mitogen-activated protein kinase 11 (MAPK11, Homo sapiens, UniProt Q15759) | enzyme activity | reference: untreated control | 88 |
| Fibroblast growth factor receptor 4 (FGFR4, Homo sapiens, UniProt P22455) | enzyme activity | reference: untreated control | 94.7 |
| Serine/threonine-protein kinase PAK 6 (PAK6, Homo sapiens, UniProt Q9NQU5) | enzyme activity | reference: untreated control | 99.1 |

Sample 2 — observed: cell-free assay; method: competition with immobilised ligand; concentration: 1 µM
Structure (SMILES): CCS(=O)(=O)c1cc2cc(C[C@@](O)(CC(C)(C)c3ccc(F)cc3C(N)=O)C(F)(F)F)[nH]c2cn1
| target | remaining binding |
| --- | --- |
| Ephrin type-A receptor 2 (EPHA2, Homo sapiens, UniProt P29317) | 67% |
| Mitogen-activated protein kinase 6 (MAPK6, Homo sapiens, UniProt Q16659) | 72% |
| Calcium/calmodulin-dependent protein kinase type 1B (PNCK, Homo sapiens, UniProt Q6P2M8) | 85% |
| Ephrin type-B receptor 4 (EPHB4, Homo sapiens, UniProt P54760) | 100% |
| Proto-oncogene tyrosine-protein kinase Src (SRC, Homo sapiens, UniProt P12931) | 100% |
| Cyclin-dependent kinase 4, with cyclin D1 (CDK4, Homo sapiens, UniProt P11802) | 97% |
| Serine/threonine-protein kinase Nek7 (NEK7, Homo sapiens, UniProt Q8TDX7) | 95% |
| Dual specificity tyrosine-phosphorylation-regulated kinase 1A (DYRK1A, Homo sapiens, UniProt Q13627) | 66% |
| Serine/threonine-protein kinase 4 (STK4, Homo sapiens, UniProt Q13043) | 100% |
| Mitogen-activated protein kinase kinase kinase 14 (MAP3K14, Homo sapiens, UniProt Q99558) | 59% |
| Serine/threonine-protein kinase TNNI3K (TNNI3K, Homo sapiens, UniProt Q59H18) | 100% |
| Mitogen-activated protein kinase kinase kinase kinase 4 (MAP4K4, Homo sapiens, UniProt O95819) | 85% |
| Leucine-rich repeat serine/threonine-protein kinase 2 (LRRK2, Homo sapiens, UniProt Q5S007) | 42% |
| Serine/threonine-protein kinase DCLK1 (DCLK1, Homo sapiens, UniProt O15075) | 100% |
| Non-receptor tyrosine-protein kinase TNK1 (TNK1, Homo sapiens, UniProt Q13470) | 100% |
| Tyrosine-protein kinase Fyn (FYN, Homo sapiens, UniProt P06241) | 100% |

Sample 3 — species: human; sample: microsomes or S9; concentration: 2 µM; time: 0.5 h
| Structure (SMILES) | remaining compound |
| --- | --- |
| O=C(c1nccc2ccccc12)N1CCc2cc(-c3ccno3)ccc21 | 4.12% |
| O=S1(=O)N=C(N(CCc2ccccc2)Cc2ccccc2)c2ccccc21 | 37.2% |
| CCCc1nn2c(N)c(C#N)nnc2c1-c1ccc(F)cc1 | 51.7% |
| Cc1ccc(-n2ccnc2S(=O)(=O)Cc2noc(C)n2)c(C)c1 | 85.3% |
| COCCN(CC(=O)N1N=C(c2ccccc2F)CC1c1cccs1)C(=O)CC(C)(C)C (stereo not drawn) | 9% |
| Cc1ccc(-c2ccc(C(CN3CCCC3)N(C)C(=O)CN3C(=O)COc4cc(Cl)c(Cl)cc43)cc2)cn1 (stereo not drawn) | 60.6% |
| O=C(CCCc1c[nH]c2ccccc12)Nc1cccc(C(=O)O)c1 | > 100% |
| Cc1cc(C)n(CCCN(C)CC2(O)CNCCOC2)n1 (stereo not drawn) | 50.8% |
| CC(C)(C)OC(=O)N[C@@H](CC(=O)N1Cc2ccccc2CN1C(=O)OCc1ccccc1)Cc1cc(F)c(F)cc1F | < 1% |
| Cc1nnc(C)n1/N=C/c1ccc(Cl)cc1Cl | 78% |
| O=C(C[C@H]1CCC[C@@H](N2CCCC2)[C@@H]1C(=O)c1cccs1)c1cccs1 | 5.95% |
| Cc1cc(=O)[nH]c(-n2nc(C)cc2NC(=O)C(C)(C)Oc2ccc(Cl)cc2)n1 | 32.6% |
| COC(=O)CCN1C(=O)c2ccncc2/C1=C\c1ccccc1 | 0.0221% |
| C/C(=C\COc1ccc2ccc(=O)oc2c1)CC/C=C(\C)CCC(=O)C(C)(C)O | 65.3% |
| CC(C)(C)/C(=C\n1ccnc1)c1ccc(C(C)(C)C)cc1Cl | 12.6% |
| Cc1nc(-c2ccncc2)nc(NCCCCn2ccccc2=O)c1C | 0.263% |

Sample 4 — cell line: mouse MPNST tumor cells; method: high-content immunofluorescence imaging; item: nuclear SOX9; concentration: 10 µM; time: 12 h; notes: mean of 2 replicates; reference: DMSO control; direction: higher = more nuclear SOX9
| SMILES | nuclear SOX9 intensity |
| --- | --- |
| CN1CCCC(n2nc(Cc3ccc(Cl)cc3)c3ccccc3c2=O)CC1 (stereo not drawn) | 212 % of DMSO |
| COc1cccc(OC)c1-c1cc(C(=O)NC2(C(=O)O)C3CC4CC(C3)CC2C4)nn1-c1ccc(C(=O)N(C)CCCN(C)C)cc1C(C)C (stereo not drawn) | 98.2 % of DMSO |
| CCN1CCN(c2cc3c(cc2F)c(=O)c(C(=O)O)cn3C2CC2)CC1 | 105 % of DMSO and 99.9 % of DMSO |
| C=C1C(=O)O[C@@H](CCCCCCCC)[C@@H]1C(=O)O.C=C1C(=O)O[C@H](CCCCCCCC)[C@H]1C(=O)O | 90.9 % of DMSO |
| CCC(Cc1c(I)cc(I)c(N)c1I)C(=O)O (stereo not drawn) | 85.3 % of DMSO |
| OCC(O)CN1CCN(c2ccccc2)CC1 (racemic) | 97.6 % of DMSO |
| CCC(=O)O[C@]1(C(=O)SCF)[C@H](C)C[C@H]2[C@@H]3C[C@H](F)C4=CC(=O)C=C[C@]4(C)[C@@]3(F)[C@@H](O)C[C@@]21C | 90.4 % of DMSO and 80.8 % of DMSO |
| COCCCC/C(=N\OCCN)c1ccc(C(F)(F)F)cc1 | 152 % of DMSO |
| Cc1cc(C(C)(C)C)cc(C)c1CC1=NCCN1 | 109 % of DMSO |
| COc1nc(N)nc2c1ncn2[C@@H]1O[C@H](CO)[C@@H](O)[C@@H]1O | 109 % of DMSO and 118 % of DMSO |
| Cc1cc(C)c(N)c(C#Cc2cccc(F)c2)n1 | 109 % of DMSO |
| COc1ccc(COc2ccc(CC#N)cc2)cc1 | 94.1 % of DMSO |

Some of these lines once more (sample 2):
| target | remaining binding |
| --- | --- |
| Ephrin type-A receptor 2 (EPHA2, Homo sapiens, UniProt P29317) | 67% |
| Mitogen-activated protein kinase 6 (MAPK6, Homo sapiens, UniProt Q16659) | 72% |
| Calcium/calmodulin-dependent protein kinase type 1B (PNCK, Homo sapiens, UniProt Q6P2M8) | 85% |
| Ephrin type-B receptor 4 (EPHB4, Homo sapiens, UniProt P54760) | 100% |
| Proto-oncogene tyrosine-protein kinase Src (SRC, Homo sapiens, UniProt P12931) | 100% |
| Cyclin-dependent kinase 4, with cyclin D1 (CDK4, Homo sapiens, UniProt P11802) | 97% |
| Serine/threonine-protein kinase Nek7 (NEK7, Homo sapiens, UniProt Q8TDX7) | 95% |
| Dual specificity tyrosine-phosphorylation-regulated kinase 1A (DYRK1A, Homo sapiens, UniProt Q13627) | 66% |
| Serine/threonine-protein kinase 4 (STK4, Homo sapiens, UniProt Q13043) | 100% |
